Results collected from several papers.
Protocols differ between the studies behind these lines. “And” joins repeats or separate records; there may be more than shown. ± marks the error that the study gave.

O=C(NCCSc1ccc2c(/C=C/c3ccccn3)n[nH]c2c1)Nc1ccc(F)c(F)c1
GI50 (BaF3; cell growth or viability, CCK-8): > 10 µM

CCCC[C@H](NC(C)=O)C(=O)N[C@@H](CCC(=O)O)C(=O)N[C@@H](CO)C(=O)N[C@@H](CC(=O)O)C(=O)COC(=O)c1c(C)cccc1C
cell lysis (THP-1 cells, LPS-primed; pyroptosis, LDH release; 25 µM, LPS 1 µg/mL, 4 h, with: nigericin 5 µM, 2 h): 34.2%

CCC(=CCc1c(O)cc2c(c1O)C(=O)CC(c1ccc(OC)cc1O)O2)CC (stereo not shown)
inhibition (HeLa; cell growth or viability, MTT; 100 µM, 48 h): 99%

CC(=O)N[C@@H](CC(=O)O)C(=O)N[C@@H](C)C(=O)N[C@@H](Cc1ccc(N)cc1)C(=O)N[C@@H](CC(=O)O)C(=O)COC(=O)c1c(C)cccc1C
cell lysis (THP-1 cells, LPS-primed; pyroptosis, LDH release; 25 µM, LPS 1 µg/mL, 4 h, with: nigericin 5 µM, 2 h): 96.2% and 79.6%

Cn1ncc2cc(-c3cncc(Cl)c3N3CCC4(CCNC4=O)CC3)ccc21
log2 fold change (LS174T; gene expression, microarray, measured: PCK1 mRNA; concentration not given, 4 h; reference: untreated cells): 1.63

C[C@@H]1CC[C@@H]([C@@](O)(CNCc2ccccc2F)COCc2ccccc2)[C@H](OCc2ccccc2)C1
inhibition (A2780; cell growth or viability, MTT; 10 µM, 72 h): 95.3%

CC12CCCC(NC(=O)c3ccc([N+](=O)[O-])cc3)(C1)C1CC(C)(C)C1CC2 (stereo not shown)
inhibition (HT-29; cell growth or viability, CCK-8; 300 µM): 62.4%

CCN(C(=O)c1cc(F)ccc1Oc1nncnc1N1CCC2(C1)CN([C@H](CCCN(C)CCOC)C(C)C)C2)C(C)C
GI50 (JEG-3; cell growth or viability; 7 days): > 10 µM

N#C[C@@H]1CC(F)(F)CN1C(=O)CNC(=O)c1ccnc2ccc(OCCCN3CCN(C(=O)CCc4ccc5c(c4)CN4CCN(Cc6cc(CCC(=O)O)ccc6O)CC(=O)[O][Al-]([18F])([O]C(=O)C4)[O]5)CC3)cc12 (stereo partly shown)
internalized fraction (HT1080 cells expressing human FAP; 120 min, 37 °C): 84 ± 0.6%

CN1CCCNC(=O)c2cccc(c2)C(=O)NCCCN(C)CCCNc2cccc3c2C(=O)c2cccc(c2C3=O)NCCC1
log2 fold change (SAS; RNA-Seq, measured: POLG mRNA; 1 µM, 6 h; reference: untreated cells): -0.717

CCC(=CCc1c(O)cc2c(c1O)C(=O)CC(c1ccc(O)c(OC)c1)O2)CC (stereo not shown)
inhibition (HeLa; cell growth or viability, MTT; 0.781 µM, 48 h): 3.75%

CNS(=O)(=O)Nc1nccc(Cc2c(C)c3ccc(Oc4ncccc4F)cc3oc2=O)c1F
IC50 (NCI-H1694; cell viability; 7 days): > 1 µM

C=CC(=O)N1CCCC(n2c(=O)c3ncccc3n(Cc3ccc(Oc4ccccc4)cc3)c2=O)C1 (stereo not shown)
early apoptotic cells (OCI-LY19; annexin V/PI flow cytometry; 100 nM, 72 h): 2.82%

Cc1ncsc1-c1ccc(C(C)NC(=O)C2CC(O)CN2C(=O)C(NC(=O)CCCCCCCCCCN2CCCC(Nc3ncc(Cl)c(Nc4ccccc4S(=O)(=O)C(C)C)n3)C2)C(C)(C)C)cc1 (stereo not shown)
log2 fold change (22Rv1; RNA-seq, measured: SLC37A2 mRNA; concentration not given; reference: DMSO): -2.44

COC(=O)c1cc(NC2=NC(=O)C(=Cc3ccc(N(C)C)cc3)S2)ccc1OC(C)=O
fold change (A549; measured: CDC14A mRNA; 2.93 µM, 24 h; reference: DMSO): 0.0143

O=S(=O)(N[C@H]1CCO[C@@H](C2c3ccc(F)cc3CCc3cc(F)ccc32)C1)c1ccc(OC(F)(F)F)cc1
protein level (D425; immunoblot, measured: CCR2; concentration not given): decreased

[BH3-][P+]1(c2ccccc2)CCCCC1
late apoptotic cells (HaCaT; Annexin V-FITC/PI flow cytometry; IC50, 72 h): 1.45%

O=S(=O)(Nc1ccc(OC(F)(F)F)cc1)N1CCCC(C2c3ccccc3CCc3ccccc32)C1 (stereo not shown)
phosphorylation level (D425; immunoblot, measured: AKT; concentration not given): decreased

Cc1cc(C)c2c(Cn3ccnc3)cc(=O)oc2c1
calcium mobilisation signal (COS-7 (untransfected); 500 µM, unit not given; reference: 3 µM ionomycin): 1.09 ± 2.05

A few entries again:
CN1CCCNC(=O)c2cccc(c2)C(=O)NCCCN(C)CCCNc2cccc3c2C(=O)c2cccc(c2C3=O)NCCC1
log2 fold change (SAS; RNA-Seq, measured: POLG mRNA; 1 µM, 6 h; reference: untreated cells): -0.717
